{"data": "Measurements pooled from the literature", "note": "Each numbered part is a random draw from the data of one study; scales do not carry over between parts. Changes are numbered by the printed parent chain."}
{"data": "Sample 1", "target": "CCNB3, cyclin fold, Cln2 fusion (human)", "technique": "yeast growth competition, sequencing", "sample": "yeast", "notes": "weak parent motif", "reference": "not given", "reading": "higher = stronger binding", "parent": "MICAL3 docking peptide (human); LQLRRQLSFSEDS; partner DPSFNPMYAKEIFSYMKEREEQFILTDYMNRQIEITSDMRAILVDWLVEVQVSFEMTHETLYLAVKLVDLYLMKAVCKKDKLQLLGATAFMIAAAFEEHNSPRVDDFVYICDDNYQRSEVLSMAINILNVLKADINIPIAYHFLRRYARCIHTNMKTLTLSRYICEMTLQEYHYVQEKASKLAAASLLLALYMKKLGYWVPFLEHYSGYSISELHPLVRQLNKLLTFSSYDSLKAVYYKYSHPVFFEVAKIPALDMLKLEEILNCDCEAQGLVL"}
{"Change": "LQLQRQLSFSEDS [R4Q]", "normalised enrichment score": -0.265}
{"Change": "LQLRRQLSFSIDS [E11I]", "normalised enrichment score": -0.169}
{"Change": "LQLRRQTSFSEDS [L7T]", "normalised enrichment score": 0.0137}
{"Change": "LQLRVQLSFSEDS [R5V]", "normalised enrichment score": 0.145}
{"Change": "LQLRRQLSFSHDS [E11H]", "normalised enrichment score": 0.132}
{"data": "Sample 2", "target": "Histone acetyltransferase KAT6A, winged helix 1, GST fusion (KAT6A, Homo sapiens, UniProt Q92794, residues 1-85)", "technique": "protein binding microarray", "molecule type": "double-stranded DNA, one strand shown", "sample": "in vitro", "tested at": "not given", "notes": "8-mer, flanks averaged, mean of 2 arrays, mostly near background", "reference": "not given", "reading": "higher = stronger binding", "Residues (chain)": "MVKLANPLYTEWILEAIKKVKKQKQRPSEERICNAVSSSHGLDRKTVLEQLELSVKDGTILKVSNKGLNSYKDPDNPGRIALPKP"}
{"Strand": "CCACTGGC", "E-score": -0.199}
{"Strand": "AGGAGGTC", "E-score": -0.177}
{"Strand": "AGCTCTCC", "E-score": -0.083}
{"Strand": "ACCTCACA", "E-score": -0.0943}
{"Strand": "ACGCGGTC", "E-score": 0.391}
{"Strand": "AAATCTAG", "E-score": -0.0715}
{"Strand": "CAGCGAAG", "E-score": 0.0773}
{"Strand": "CGTTCACA", "E-score": -0.042}
{"data": "Sample 3", "target": "Sal-like protein 4, full length isoform A (SALL4, Homo sapiens, UniProt Q9UJQ4, residues 1-1053)", "technique": "universal PBM", "molecule type": "double-stranded DNA, one strand shown", "sample": "in vitro", "tested at": "600 nM", "notes": "8-mer, flanks averaged, mean of replicates", "reading": "higher = stronger binding", "chain of UniProt Q9UJQ4 (whole entry, looked up)": "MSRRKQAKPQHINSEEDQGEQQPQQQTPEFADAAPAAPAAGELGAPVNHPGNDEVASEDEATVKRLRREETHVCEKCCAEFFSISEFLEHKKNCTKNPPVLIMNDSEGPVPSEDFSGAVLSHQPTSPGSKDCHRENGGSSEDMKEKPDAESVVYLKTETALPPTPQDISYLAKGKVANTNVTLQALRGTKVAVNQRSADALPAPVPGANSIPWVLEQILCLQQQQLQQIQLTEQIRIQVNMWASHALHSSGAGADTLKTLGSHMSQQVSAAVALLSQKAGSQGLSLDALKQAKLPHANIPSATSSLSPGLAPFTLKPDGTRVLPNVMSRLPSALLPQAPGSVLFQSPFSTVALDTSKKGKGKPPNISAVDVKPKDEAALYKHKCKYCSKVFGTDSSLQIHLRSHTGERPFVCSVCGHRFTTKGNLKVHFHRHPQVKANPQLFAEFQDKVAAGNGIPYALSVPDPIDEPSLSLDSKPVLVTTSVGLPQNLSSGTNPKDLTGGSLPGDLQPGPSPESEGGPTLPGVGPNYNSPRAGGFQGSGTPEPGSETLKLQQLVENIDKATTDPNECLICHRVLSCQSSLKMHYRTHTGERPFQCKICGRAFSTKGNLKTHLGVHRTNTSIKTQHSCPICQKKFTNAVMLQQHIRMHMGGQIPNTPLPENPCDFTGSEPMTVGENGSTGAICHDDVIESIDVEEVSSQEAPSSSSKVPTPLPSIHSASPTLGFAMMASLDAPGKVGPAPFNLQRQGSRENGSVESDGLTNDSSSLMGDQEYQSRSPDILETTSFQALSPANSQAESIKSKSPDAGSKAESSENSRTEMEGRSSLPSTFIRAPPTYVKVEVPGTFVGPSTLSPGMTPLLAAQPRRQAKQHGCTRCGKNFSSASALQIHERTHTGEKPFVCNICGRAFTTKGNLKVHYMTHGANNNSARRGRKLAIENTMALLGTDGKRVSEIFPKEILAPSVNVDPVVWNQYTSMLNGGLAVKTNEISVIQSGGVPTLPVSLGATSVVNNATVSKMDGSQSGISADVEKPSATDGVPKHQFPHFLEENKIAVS"}
{"Strand": "TCCTCTCA", "E-score": -0.00829}
{"Strand": "ATCAGGTG", "E-score": -0.107}
{"Strand": "ATGGACGC", "E-score": -0.202}
{"Strand": "CGTGCTAC", "E-score": -0.238}
{"Strand": "GCTCACGA", "E-score": -0.25}
{"Strand": "GAATCACA", "E-score": -0.00897}
{"Strand": "GCAAGACA", "E-score": 0.0602}
{"data": "Mixed results"}
{"Molecule": "PhoQ, residues 284 288 289 292 302 303 ASSHFY", "target": "PhoP, residues 12 14 15 18 19 NYFRM (Escherichia coli, UniProt P23836)", "test": "Sort-seq, item: YFP reporter", "system": "E. coli", "conditions": "PhoQ-PhoP variant library, together with: 10 µM Mg2+", "how to read": "reference: high Mg2+ state, higher = stronger signaling", "quantity": "fold induction", "result": 14.1}
